{"data": "Measurements pooled from the literature", "Nuclear receptor subfamily 2 group C member 2 ligand-binding domain": "Nuclear receptor subfamily 2 group C member 2, ligand-binding domain (Homo sapiens, UniProt P49116)", "note": "Protocols differ between the studies behind these lines. Several values in a cell are separate wells, animals, samples, runs or records. ± gives the spread as reported."}
{"SMILES": "CC[C@H](C)[C@@H]1NC(=O)[C@H](Cc2ccc(O)cc2)NC(=O)CSC[C@@H](C(N)=O)NC(=O)CNC(=O)[C@H](Cc2c[nH]cn2)NC(=O)[C@H](CCCNC(=N)N)NC(=O)[C@H](CC(N)=O)NC(=O)[C@@H]2CCCN2C(=O)[C@H](Cc2ccccc2)NC(=O)[C@H]([C@@H](C)O)NC(=O)CNC(=O)[C@H](CC(C)C)NC(=O)[C@@H]2CCCN2C(=O)[C@H]([C@@H](C)O)NC(=O)[C@H](CCCCN)NC1=O", "tested on": "VPS35/VPS29 (Homo sapiens, UniProt Q96QK1+Q9UBQ0)", "test": "binding, isothermal titration calorimetry", "conditions": "25 °C", "endpoint": "ΔH", "value": "-7.9 ± 1.2 kcal/mol"}
{"SMILES": "CC(C)C[C@@H]1NC(=O)[C@H](C(C)C)NC(=O)CNC(=O)[C@H](CC(N)=O)NC(=O)[C@@H]2CCCN2C(=O)[C@H](Cc2ccc(O)cc2)NC(=O)[C@H](CCCNC(=N)N)NC(=O)[C@H](C)NC(=O)[C@@H](NC(=O)[C@H](CCCCN)NC(=O)[C@@H]2CCCN2C(=O)[C@H](CO)NC(=O)[C@H](C)NC(=O)[C@@H](N)Cc2ccc(O)cc2)CSSC[C@@H](C(=O)N[C@H](C(N)=O)[C@@H](C)O)NC(=O)[C@H](C)NC1=O", "tested on": "Alpha-2-HS-glycoprotein, asialo (AHSG, Bos taurus, UniProt P12763)", "test": "binding, isothermal titration calorimetry", "conditions": "pH 7.0, 25 °C, added: asialofetuin", "endpoint": "-ΔH", "value": "6.16 kcal/mol"}
{"SMILES": "O=S1(=O)N=C(Nc2ccccc2)c2ccccc21", "tested on": "PKLR (Homo sapiens, UniProt P30613)", "test": "enzyme activity, activator", "conditions": "10 µM", "endpoint": "activity", "value": "inactive"}
{"SMILES": "Cc1ccccc1C(=O)Nc1ccc(C(=O)N2CCCC(O)c3cc(Cl)ccc32)c(C)c1 (stereo not drawn)", "tested on": "Nuclear receptor subfamily 2 group C member 2 ligand-binding domain", "test": "SPR imaging", "conditions": "600 nM", "endpoint": "koff", "value": "1.97e-07 s⁻¹"}
{"SMILES": "Nc1nc2c(ncn2[C@@H]2O[C@H](COP(=O)(O)O)[C@@H](O)[C@H]2O)c(=O)[nH]1", "tested on": "GUK1 (Homo sapiens, UniProt Q16774)", "test": "enzyme activity, NADH-coupled", "conditions": "250 µM, added: KCl 150 mM", "endpoint": "reaction velocity", "value": "0.0606 µM/s and 0.0691 µM/s and 0.0721 µM/s"}
{"SMILES": "Nc1ccc(C(=O)O)cc1", "tested on": "BEST1, with wild-type BEST1 (Homo sapiens, UniProt O76090, D302A)", "test": "ion current, whole-cell patch clamp", "system": "HEK293 co-expressing mutant and wild-type", "conditions": "concentration not given, voltage -80 mV", "endpoint": "current density", "value": "-18.4 pA/pF and -12.7 pA/pF and -6.28 pA/pF and -6.14 pA/pF and -11.6 pA/pF and -14.3 pA/pF"}
{"SMILES": "O=S(=O)(O)C1CCNCC1", "tested on": "SLC6A6 (Homo sapiens, UniProt P31641, Y138A)", "test": "binding, microscale thermophoresis", "conditions": "43.2 nM, fitted curve", "how to read": "higher = more binding", "endpoint": "fraction bound", "value": 0}
{"SMILES": "Cc1cc(O)c2c(c1)C(=O)c1cc(O)cc(O)c1C2=O", "tested on": "HepaRG co-cultured with HK-2", "test": "MTT", "conditions": "33.33 µM, 24 h", "how to read": "relative to: untreated control", "endpoint": "cell viability", "value": "88.7 ± 12.9%"}
{"SMILES": "CCN1CCN(c2cc(N3CCN(CC)CC3)nc(NCCNc3ccnc4cc(Cl)ccc34)n2)CC1", "tested on": "COS-7", "conditions": "20 µM, 24 h, 0.1% DMSO, unit not given", "how to read": "relative to: vehicle control", "endpoint": "apoptotic cells", "value": "5.22 ± 0.95"}
{"SMILES": "O=C1c2ccccc2CCN1CCCCN1CCN(c2cccc(Cl)c2Cl)CC1", "tested on": "HTR1A (Homo sapiens, UniProt P08908)", "test": "radioligand binding", "conditions": "concentration not given, added: [3H]8-OH-DPAT", "endpoint": "inhibition", "value": "99.5%"}
{"SMILES": "O=C([O-])c1ccccc1O.[Na+]", "tested on": "Nuclear receptor subfamily 2 group C member 2 ligand-binding domain", "test": "SPR imaging", "conditions": "600 nM", "endpoint": "koff", "value": "2.26e-05 s⁻¹"}
{"SMILES": "C=C(c1ccc(C(=O)O)cc1)c1cc2c(cc1C)C(C)(C)CCC2(C)C", "tested on": "COS-7", "conditions": "100 µM, 24 h, 0.1% DMSO, unit not given", "how to read": "relative to: control", "endpoint": "necrosis", "value": "3.71 ± 1.94"}
{"SMILES": "CC[C@@H]1[C@H](F)C(=O)N[C@@H]1COc1nccc2cc(C(N)=O)c(OC)cc12", "tested on": "RPS6KC1 (Homo sapiens, UniProt Q96S38)", "test": "ATP probe binding, KiNativ profiling, refers to: domain 1 ATP site", "system": "THP-1 cell lysate", "conditions": "0.04 mM", "endpoint": "inhibition", "value": "-10.9%"}
{"SMILES": "CCS(=O)(=O)c1nc(C2CC2)cc(C(F)(F)F)n1", "tested on": "Exportin-1 (XPO1, Homo sapiens, UniProt O14980)", "test": "nuclear export, high content imaging", "system": "HeLa Kyoto reporter", "conditions": "0.5 µM, 2 h", "endpoint": "cells with nuclear reporter", "value": "3.37% and 2.44% and 4.48%"}
{"SMILES": "CCCCCCCCCCCCCCCC(=O)SCCNC(=O)CCNC(=O)[C@H](O)C(C)(C)COP(=O)(O)OP(=O)(O)OC[C@H]1O[C@@H](n2cnc3c(N)ncnc32)[C@H](O)[C@@H]1OP(=O)(O)O", "tested on": "glycerol-3-phosphate acyltransferase, mouse", "test": "substrate", "system": "mouse testis total membranes", "conditions": "pH 7.5, room temperature, added: [3H]glycerol-3-phosphate", "endpoint": "Km", "value": "112 ± 24.9 µM"}
{"SMILES": "Nc1ncnc2c1ncn2[C@@H]1O[C@H](COP(=O)(O)CP(=O)(O)OP(=O)(O)O)[C@@H](O)[C@H]1O", "tested on": "P2X purinoceptor 1 (P2RX1, Homo sapiens, UniProt P51575, R292A)", "test": "calcium influx", "conditions": "10 nM", "how to read": "relative to: ionomycin response", "endpoint": "calcium influx", "value": "0.434% and 1.91%"}
{"SMILES": "O=C(COP(=O)(O)O)[C@@H](O)[C@H](O)[C@H](O)COP(=O)(O)O", "tested on": "Small ribosomal subunit protein uS11 (Homo sapiens, UniProt P62263)", "test": "thermal proteome profiling, refers to: RPS14", "system": "HepG2 cell lysate", "conditions": "concentration not given, 57 over 37 °C", "how to read": "relative to: compound over control", "endpoint": "thermal stability ratio", "value": "0.76 and 0.56 and 0.667"}
{"SMILES": "Cc1cccc(N2CC(C(=O)O)CC2=O)c1 (stereo not drawn)", "tested on": "F-box only protein 22, with SKP1 (Homo sapiens, UniProt Q8NEZ5)", "test": "binding, affinity selection mass spectrometry", "how to read": "relative to: other proteins in batch", "endpoint": "log fold enrichment", "value": 0.179}
{"note": "A few entries again:"}
{"SMILES": "C=C(c1ccc(C(=O)O)cc1)c1cc2c(cc1C)C(C)(C)CCC2(C)C", "tested on": "COS-7", "conditions": "100 µM, 24 h, 0.1% DMSO, unit not given", "how to read": "relative to: control", "endpoint": "necrosis", "value": "3.71 ± 1.94"}
{"SMILES": "O=S1(=O)N=C(Nc2ccccc2)c2ccccc21", "tested on": "PKLR (Homo sapiens, UniProt P30613)", "test": "enzyme activity, activator", "conditions": "10 µM", "endpoint": "activity", "value": "inactive"}
